Published values pooled from the literature.
Lines come from different studies, so protocols differ. Numbers after ± are the reported error.

| Structure (SMILES) | cell line | read-out | technique | time | setting | GI50 [nM] |
| --- | --- | --- | --- | --- | --- | --- |
| CC(=O)Nc1cc(COc2c(Cl)cc(CC(N)C(=O)O)cc2Cl)c2oc(-c3ccccc3)nc2c1 (stereo not drawn) | HEK293 expressing human LAT1 | cell proliferation |  | 72 h |  | > 30000 |
| CC(Cc1ccc(Cl)cc1)=C(c1ccc(Cl)cc1)c1ccc(OCCN(C)C)cc1 | UACC-257 | cell growth or viability | SRB |  |  | 4240 |
| O=C1Nc2ccc(F)cc2C1=Cc1c(Cl)[nH]c2c1ccc1ccccc12 | NCI-60 cell panel |  |  | 48 h | panel mean | 470 |
| CC(=C(c1ccc(O)cc1)c1ccc(Cl)cc1)c1ccc(Cl)cc1 | SK-MEL-5 | cell growth or viability | SRB |  |  | 470 |
| CCN1CCN(Cc2ccc(C(=O)Nc3ccc(C)c(NCc4cnc5[nH]ccc5c4OC)c3)cc2C(F)(F)F)CC1 | SAOS-2 | cell growth or viability |  | 48 h |  | 390 |
| COc1cc2c(C=C3C(=O)Nc4ccccc43)c[nH]c2cc1C | NCI-60 cell panel |  |  | 48 h | panel mean | 130 |
| C[n+]1cc(NC(=O)c2ccc3ccc4ccc(C(=O)Nc5cc6ccccc6[n+](C)c5)nc4c3n2)cc2ccccc21 | T98G multidrug-resistant |  | CellTiter-Glo | 96 h |  | 2900 ± 200 |
| CCC(=C(c1ccc(Cl)cc1)c1ccc(OCCCN(C)C)cc1)c1ccc(OC)cc1 | UACC-257 | cell growth or viability | SRB |  |  | 7930 |
| CC/C=C\C/C=C\C/C=C\C/C=C\C/C=C\C/C=C\CCC(=O)Nc1ccn(C2OC(CO)C(O)C2(F)F)c(=O)n1 (stereo not drawn) | HOP-92 | cell growth or viability | SRB |  |  | 771 |

Excerpt of the above:
| Structure (SMILES) | cell line | read-out | technique | time | setting | GI50 [nM] |
| --- | --- | --- | --- | --- | --- | --- |
| CC(Cc1ccc(Cl)cc1)=C(c1ccc(Cl)cc1)c1ccc(OCCN(C)C)cc1 | UACC-257 | cell growth or viability | SRB |  |  | 4240 |
